Published values of several laboratories.
Numbered parts are unrelated; each lists some results of a single study.

Study 1
Target: Histamine H1 receptor (HRH1, Homo sapiens, UniProt P35367)
Sequence of UniProt P35367 (whole entry, looked up): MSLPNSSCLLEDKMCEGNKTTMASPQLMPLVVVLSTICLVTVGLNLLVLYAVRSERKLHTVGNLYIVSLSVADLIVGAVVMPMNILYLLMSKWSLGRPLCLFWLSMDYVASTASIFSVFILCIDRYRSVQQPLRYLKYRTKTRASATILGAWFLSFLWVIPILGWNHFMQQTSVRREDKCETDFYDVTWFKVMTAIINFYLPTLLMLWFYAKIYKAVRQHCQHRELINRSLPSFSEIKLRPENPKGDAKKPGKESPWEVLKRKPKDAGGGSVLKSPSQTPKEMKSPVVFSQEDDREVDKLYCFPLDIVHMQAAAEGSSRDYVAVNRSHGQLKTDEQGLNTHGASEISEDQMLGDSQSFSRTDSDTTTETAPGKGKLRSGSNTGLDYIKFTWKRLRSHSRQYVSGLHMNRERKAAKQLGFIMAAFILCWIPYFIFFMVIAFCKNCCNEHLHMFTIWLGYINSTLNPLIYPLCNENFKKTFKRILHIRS
Effect on: ligand displacement
Tested at: 10 µM
Quantity: inhibition
Structure (SMILES) = CNC(=O)Nc1ccc2c(c1)CC[C@]21OC(=O)N(CC(=O)N(Cc2ccc(F)cc2)[C@@H](C)C(F)(F)F)C1=O; value = 1.99%
Structure (SMILES) = CC(=O)Nc1ncc(CN2CCC[C@H](Cc3cc(C)nc(C)c3)C2)s1; value = 44%
Structure (SMILES) = COc1cccc(NC(=O)c2nc3scc(CN(C)Cc4ccccc4)c3c(=O)[nH]2)c1; value = 73.4%
Structure (SMILES) = CN([C@@H]1CCc2c(CC(=O)O)c3ccccc3n2C1)S(=O)(=O)c1ccc(F)cc1; value = -19.7%
Structure (SMILES) = CC1CCN(c2ccnc(NCc3cn(C)cn3)n2)CC1; value = 40.1%
Structure (SMILES) = CCOc1ccc(S(=O)(=O)Nc2ccc(Cl)cc2C#Cc2cnc(C(=O)O)cc2OC)c2ncccc12; value = 21.7%
Structure (SMILES) = C[C@@H](c1cccc(C#N)c1)n1cc(Cl)cc(C(N)=O)c1=N; value = -9.05%
Structure (SMILES) = CCC(F)(F)c1cc(N2CCC(S(C)(=O)=O)CC2)nc2sc(C(N)=O)c(N)c12; value = 9.22%
Structure (SMILES) = COc1cc(-c2cn(C3CCc4c(F)cccc4N(CC(F)(F)F)C3=O)nn2)ccc1-n1cnc(C)c1 (stereo not shown); value = 7.55%
Structure (SMILES) = Cc1cc(Nc2nccc(C)n2)cc(-c2cnc([C@@]3(O)CC[C@H](C(=O)O)C(C)(C)C3)s2)c1; value = 7.85%
Structure (SMILES) = CS(=O)(=O)N1CCCC(NC(=O)[C@H](CCC2CCCCC2)NC(=O)c2ccc(CNC(=O)c3cnc4ccccn34)cc2)C1 (stereo partly shown); value = 3.62%
Structure (SMILES) = CNC(=N)NCCC[C@H](NC(=O)[C@H](CC(C)C)NC(=O)NNC(=O)[C@H](Cc1ccccc1)NC(=O)[C@H](CO)NC(=O)[C@H](CC(N)=O)NC(=O)[C@@H](Cc1ccncc1)NC(=O)[C@H](N)Cc1ccc(O)cc1)C(=O)N[C@@H](Cc1ccccc1)C(N)=O; value = 19.9%
Structure (SMILES) = c1ccc(C2CCN(c3cnc4c(N5CCOCC5)nccn34)CC2)cc1; value = 11.2%
Structure (SMILES) = COc1ccc2cc(OCC3(C(=O)O)CN(C(=O)c4ccc(F)cc4)C3)ccc2c1; value = -11.5%
Structure (SMILES) = CC[C@H](CC(=O)O)n1c(=O)c2ncccc2n(Cc2cn(C)c3cc(C)cc(C)c23)c1=O; value = 14.1%
Structure (SMILES) = CN1CCN(c2cnc3c(C4CCN(C(=O)c5ccc(OC(F)(F)F)cc5N)CC4)ncnc3c2)CC1; value = 14.6%
Structure (SMILES) = C[C@H](c1ccnc(Nc2nc3ccc(-c4cc(N(C)C)ncn4)cc3[nH]2)c1)N1CCN(C(=O)CC(F)(F)F)CC1; value = 35%
Structure (SMILES) = CN1CCN(C(=O)C(C)(C)c2ccc(C(=O)Nc3cn4cc(-c5cc(C(C)(C)C)cc(C(C)(C)C)c5)ccc4n3)cc2)CC1; value = 83%

Study 2
Target: Homeodomain-interacting protein kinase 2 (HIPK2, Homo sapiens, UniProt Q9H2X6)
Sequence of UniProt Q9H2X6 (whole entry, looked up): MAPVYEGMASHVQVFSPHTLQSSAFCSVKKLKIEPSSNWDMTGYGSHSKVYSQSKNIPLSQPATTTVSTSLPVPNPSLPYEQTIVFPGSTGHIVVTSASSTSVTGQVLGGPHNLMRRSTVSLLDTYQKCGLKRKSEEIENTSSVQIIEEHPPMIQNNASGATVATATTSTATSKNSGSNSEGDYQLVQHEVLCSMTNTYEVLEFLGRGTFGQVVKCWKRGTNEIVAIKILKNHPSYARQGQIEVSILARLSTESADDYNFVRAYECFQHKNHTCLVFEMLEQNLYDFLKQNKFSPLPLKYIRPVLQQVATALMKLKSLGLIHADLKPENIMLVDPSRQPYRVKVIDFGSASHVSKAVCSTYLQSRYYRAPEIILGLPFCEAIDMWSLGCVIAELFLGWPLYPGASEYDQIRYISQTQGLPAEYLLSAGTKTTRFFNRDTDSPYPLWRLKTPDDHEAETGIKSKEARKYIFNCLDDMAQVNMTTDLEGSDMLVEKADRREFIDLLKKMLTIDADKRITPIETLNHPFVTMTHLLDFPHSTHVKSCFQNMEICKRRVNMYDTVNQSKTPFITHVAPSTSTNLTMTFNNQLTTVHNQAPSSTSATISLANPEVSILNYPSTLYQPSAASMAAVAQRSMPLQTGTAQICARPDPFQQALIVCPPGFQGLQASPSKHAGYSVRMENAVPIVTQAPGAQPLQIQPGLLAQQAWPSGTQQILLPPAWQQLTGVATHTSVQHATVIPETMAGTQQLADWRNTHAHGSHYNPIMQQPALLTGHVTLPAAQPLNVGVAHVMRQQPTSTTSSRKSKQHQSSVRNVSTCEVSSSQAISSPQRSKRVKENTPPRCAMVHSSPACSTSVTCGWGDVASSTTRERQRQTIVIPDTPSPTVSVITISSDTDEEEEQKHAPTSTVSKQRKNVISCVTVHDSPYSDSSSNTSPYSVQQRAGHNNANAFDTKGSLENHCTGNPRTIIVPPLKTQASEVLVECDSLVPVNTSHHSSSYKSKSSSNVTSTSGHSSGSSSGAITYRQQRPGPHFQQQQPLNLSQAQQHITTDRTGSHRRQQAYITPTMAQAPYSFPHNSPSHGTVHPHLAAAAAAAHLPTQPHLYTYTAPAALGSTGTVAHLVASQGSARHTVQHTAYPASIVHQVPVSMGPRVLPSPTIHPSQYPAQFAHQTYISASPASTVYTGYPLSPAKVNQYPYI
Effect on: enzyme activity
Mode: inhibitor
Tested at: 0.5 µM
Reference: control
Quantity: remaining activity
Compound = NCCNc1ncc(C(N)=O)c(Nc2cccc(C(F)(F)F)c2)n1; value = 76.4%
Compound = COc1cc2ncnc(Nc3ccc(F)c(Cl)c3)c2cc1OCCCN1CCOCC1; value = 99.7%
Compound = Oc1ccc(-c2nc(-c3ccncc3)c(-c3ccc(F)cc3)[nH]2)cc1; value = 102%
Compound = Nc1ccc2ncnc(NCCc3ccc(Oc4ccccc4)cc3)c2c1; value = 110%
Compound = Cn1c2ccccc2c2c3c(c4c5ccccc5n(CCC#N)c4c21)CNC3=O; value = 97.8%
Compound = C#Cc1cccc(Nc2ncnc3cc(OCCOC)c(OCCOC)cc23)c1; value = 99.3%
Compound = O=C1NC(=O)C(c2cn(CCCO)c3ncccc23)=C1c1cnccn1; value = 96.6%
Compound = O=C(CCCc1ccc(-c2ccccc2F)cc1)Nc1ccc(O)cc1; value = 112%
Compound = Cc1ccc(Nc2nccc(N(C)c3ccc4c(C)n(C)nc4c3)n2)cc1S(N)(=O)=O; value = 105%
Compound = COc1cc2nccc(Oc3ccc(NC(=S)NC(=O)c4ccccc4C)cc3)c2cc1OC; value = 99.2%
Compound = COc1cc2ncnc(Nc3ccc(Oc4ccccc4)cc3)c2cc1OC; value = 94.8%
Compound = Cc1cccc(-c2[nH]c(C(C)(C)C)nc2-c2ccc3c(c2)OCO3)n1; value = 101%
Compound = COc1ccc(OC)c2c(=S)c3ccccc3[nH]c12; value = 98.3%
Compound = Nc1[nH]nc2nc3ccccc3nc12; value = 95.9%

Study 3
Target: Calcium/calmodulin-dependent protein kinase type II subunit alpha (CAMK2A, Homo sapiens, UniProt Q9UQM7)
Sequence of UniProt Q9UQM7 (whole entry, looked up): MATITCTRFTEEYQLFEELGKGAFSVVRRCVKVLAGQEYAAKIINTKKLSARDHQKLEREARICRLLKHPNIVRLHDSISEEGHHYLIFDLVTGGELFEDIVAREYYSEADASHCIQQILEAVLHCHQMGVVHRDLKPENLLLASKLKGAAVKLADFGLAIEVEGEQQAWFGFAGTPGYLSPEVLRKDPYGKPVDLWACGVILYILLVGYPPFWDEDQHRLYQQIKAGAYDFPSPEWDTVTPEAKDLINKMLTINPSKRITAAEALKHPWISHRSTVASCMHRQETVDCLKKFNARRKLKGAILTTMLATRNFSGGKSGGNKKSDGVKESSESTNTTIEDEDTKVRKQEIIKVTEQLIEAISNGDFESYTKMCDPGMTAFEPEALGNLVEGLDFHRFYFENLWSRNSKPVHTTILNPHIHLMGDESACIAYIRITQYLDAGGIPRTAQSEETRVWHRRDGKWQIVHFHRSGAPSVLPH
Effect on: enzyme activity
Mode: inhibitor
Tested at: 10 µM
Quantity: inhibition
Compound = CC(=O)CC/C=C(\C)CC/C=C(\C)CC/C=C(\C)CCC=C(C)C; value = -2%
Compound = OC[C@H]1O[C@@H](Oc2c[nH]c3ccccc23)[C@H](O)[C@@H](O)[C@@H]1O; value = -24%
Compound = CCCCCCCc1cc(=O)c2ccccc2n1O; value = -2%
Compound = C[C@H](O)C(=O)Nc1c(I)c(C(=O)NC(CO)CO)c(I)c(C(=O)NC(CO)CO)c1I; value = -15%

Mixed results
Compound = COc1ccc(-c2c(Nc3ccccn3)[nH]c3c(C4=CCCCC4)c(-c4ccccc4)nn3c2=O)cc1; system = human cancer patients, plasma; conditions = oral, 150 mg QD, median, cycle 1 day 15; scale = reference: multiple over single dose; quantity = Cmax accumulation ratio; value = 4.48
